Experimental data from different studies.
Compare with care: the assays were run in different laboratories. ± gives the spread as reported.
Organism: Trypanosoma cruzi

N#C/C=C/C(=O)Oc1ccc(Br)cc1
IC50 (parasite growth, resazurin; mouse Macrophage; 24 h, intracellular, amastigote): 14.9 µM

FC(F)(F)c1ccc(N(c2cccnc2)C2CCN(c3ccc(C(F)(F)F)cn3)CC2)cc1
IC50 (parasite growth, resazurin; 48 h, epimastigote): 5.26 µM

COc1cc(O)c(-c2cc(-c3c(C)cc(O)c4c(OC)ccc(-c5c(O)cc(OC)c6c5C[C@@H](C)N(C)[C@@H]6C)c34)c(O)c3c(OC)cc(C)cc23)c2c1[C@@H](C)N(C)[C@H](C)C2
IC50 (Tulahuen C4, amastigotes): 15.1 µM

C=C1C(=O)O[C@@H]2C[C@H](C)[C@@H]3C[C@H](O[Si](C)(C)C(C)C)[C@H](O[Si](C)(C)C(C)C)[C@@]3(C)C[C@H]12
IC50 (parasite growth, thymidine uptake; epimastigote): > 107 µM

N#Cc1cccc(OCC(N)COc2cccc(C#N)c2)c1
IC50 (parasite growth; L929, TULAHUEN; intracellular, amastigote): 6 µM

C=C1C(=O)O[C@@H]2C[C@H](C)[C@@H]3C[C@H](OC(C)=O)[C@H](OC(C)=O)[C@@]3(C)C[C@H]12
IC50 (parasite growth, thymidine uptake; epimastigote): 9.12 µM

CC(=O)OC(CF)Cn1c([N+](=O)[O-])cnc1C (stereo not drawn)
IC50 (parasite growth; 24 h, trypomastigote): 1750 µM

O=C1CNC(=S)N1
IC50 (parasite growth; LLC-MK2; 48 h, intracellular, amastigote): 73.1 µg/mL

O=C([C@@H](c1ccc(Cl)cc1)c1cccnc1)N1CCN(c2ccc(C(F)(F)F)cc2)CC1
IC50 (parasite growth, resazurin; 48 h, epimastigote): 4.53 µM

NC(COc1ccccc1Cl)COc1ccccc1Cl
IC50 (parasite growth; L929, TULAHUEN; intracellular, amastigote): 12 µM

Cc1nc(C(=O)N2CCC[C@H]2C(=O)N[C@@H](CCC(=O)O)C(=O)N[C@@H](CC(C)C)C(=O)NC(C)(C)C(=O)N[C@@H](CC(C)C)C(=O)N[C@@H](CC(C)C)C(=O)NC(C)(C)C(=O)NC(C)(C)C(=O)NCCC(=O)NC2(CN(C)C)CCC2)co1
IC50 (beta-galactosidase; L6, Tulahuen C2C4): > 2 µM

CC(=O)OC(CF)Cn1cnc([N+](=O)[O-])c1 (stereo not drawn)
IC50 (parasite growth; 24 h, trypomastigote): 1050 µM

C=C1C(=O)O[C@@H]2C[C@H](C)[C@@H]3C[C@H](OCc4cn(Cc5ccccc5)nn4)[C@H](O)[C@@]3(C)C[C@H]12
IC50 (parasite growth, thymidine uptake; epimastigote): 33.9 µM

NC(COc1ccc([N+](=O)[O-])cc1)COc1ccc([N+](=O)[O-])cc1
IC50 (parasite growth; L929, TULAHUEN; intracellular, amastigote): 10 µM

N#C/C=C/C(=O)Oc1cccc(F)c1
IC50 (parasite growth, resazurin; mouse Macrophage; 24 h, intracellular, amastigote): 128 µM

NNc1n[nH]c(=O)c2ccccc12
IC50 (parasite growth; 5 days, epimastigote): > 25 µM

COc1cc(O)c2c(O)c(C(C)=O)c(C)cc2c1
IC50 (parasite growth; 72 h, epimastigote): > 50 µM

COc1ccc(Nc2c(C#N)cnc3ccc(Cl)cc23)cc1
IC50 (growth; cardiomyocytes, Y, amastigote; 72 h, together with: heme 30 µM): 6.3 ± 2.5 µM

Excerpt of the above:
O=C1CNC(=S)N1
IC50 (parasite growth; LLC-MK2; 48 h, intracellular, amastigote): 73.1 µg/mL
